# Assay results gathered from unrelated publications.
# ± marks the error that the study gave.
SMILES,organism,assay,test system,setting,EC50
Cc1cc(OC(C)C)ccc1C(=O)C(C)(C)NC(=O)c1sccc1C,Botrytis cinerea,mycelial growth on agar,B05.10,"120 h, 20 °C",6 ng/mL
COC(=O)N[C@H](C(=O)N1CCC[C@H]1c1ncc(-c2ccc(-c3ccc(-c4cnc([C@@H]5CCCN5C(=O)[C@@H](NC(=O)OC)C(C)C)[nH]4)cc3)cc2)[nH]1)C(C)C,Human alphaherpesvirus 2,multi-cycle viral growth,Vero,,> 11 µM
CCOC(=O)c1ccccc1-c1c2ccc(=O)cc-2oc2cc(OC3C=C(C)C(=O)O3)ccc12 (stereo not shown),Phelipanche ramosa,"seed germination, stimulant",seeds,,0.0077 µM
CCOc1nc(N)ncc1-c1cn([C@@H]2O[C@](F)(CO)[C@@H](O)[C@H]2O)cn1,Dengue virus,viral replication,"Huh-7, DENV-2",48 h,> 100 µM
CC(C)C[C@H](NC(=O)[C@H](Cc1cccc2ccccc12)NC(=O)OCc1ccccc1)C(=O)N[C@H](CO)CNC(=O)N1CCC1,Norwalk virus,"replicon RNA level, RT-qPCR","HG23 cells, GI.1 replicon",96 h,> 10 µM
CC(C)C(=O)OC[C@@]1(F)O[C@@H](n2cnc(-c3cnc[nH]c3=O)c2)[C@H](OC(=O)C(C)C)[C@@H]1OC(=O)C(C)C,Dengue virus,viral replication,"Huh-7, DENV-4",48 h,> 100 µM
Cc1ccc(N(c2ccc(NC(=O)CN(C)c3ccccc3N3CCCC3=O)cc2)C(C)C)cc1,Plasmodium falciparum,"ring-stage invasion, nanoluciferase",3D7 NanoLuc late schizonts,4 h pulse,0.006 µM
COCC(=O)N1CCC[C@H](C(=O)NCc2nc(-c3ccccc3)cs2)C1,Plasmodium falciparum,SYBR Green,3D7,72 h,0.089 ± 0.026 µM
COc1ncncc1-c1cn([C@@H]2O[C@](F)(COC(=O)C(C)C)[C@@H](OC(=O)C(C)C)[C@H]2OC(=O)C(C)C)cn1,Dengue virus,viral replication,"Huh-7, DENV-4",48 h,18.8 µM
CC(C)C[C@H](NC(=O)[C@H](Cc1cccc2ccccc12)NC(=O)OCc1ccccc1)C(=O)N[C@H](CS)C[C@@H]1CCNC1=O,Norwalk virus,"replicon RNA level, RT-qPCR","HG23 cells, GI.1 replicon",96 h,> 10 µM
